Assay results from different studies.
Compare with care: the assays were run in different laboratories. ± marks the error that the study gave. Values after ≈ are worked out from the molar mass of the structure shown.
lecA: PA-I galactophilic lectin (lecA, Pseudomonas aeruginosa, UniProt Q05097)
lasR: Transcriptional activator protein LasR (lasR, Pseudomonas aeruginosa, UniProt P25084)
UniProt P37136, sequence (whole entry, looked up): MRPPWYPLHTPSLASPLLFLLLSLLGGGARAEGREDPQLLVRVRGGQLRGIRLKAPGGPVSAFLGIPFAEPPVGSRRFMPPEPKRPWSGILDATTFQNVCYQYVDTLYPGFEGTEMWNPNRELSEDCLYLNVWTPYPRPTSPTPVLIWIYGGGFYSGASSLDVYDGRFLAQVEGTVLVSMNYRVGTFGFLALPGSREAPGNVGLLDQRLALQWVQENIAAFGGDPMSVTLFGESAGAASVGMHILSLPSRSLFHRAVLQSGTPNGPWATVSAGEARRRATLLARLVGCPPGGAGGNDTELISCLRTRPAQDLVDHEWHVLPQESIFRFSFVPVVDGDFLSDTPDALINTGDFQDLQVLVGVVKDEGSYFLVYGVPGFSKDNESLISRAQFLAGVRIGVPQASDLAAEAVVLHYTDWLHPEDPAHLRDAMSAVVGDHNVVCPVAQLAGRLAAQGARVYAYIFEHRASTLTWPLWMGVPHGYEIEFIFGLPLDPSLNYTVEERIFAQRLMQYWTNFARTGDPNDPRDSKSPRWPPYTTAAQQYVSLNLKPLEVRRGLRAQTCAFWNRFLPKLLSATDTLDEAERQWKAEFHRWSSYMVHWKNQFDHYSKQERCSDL
UniProt O00257, sequence (whole entry, looked up): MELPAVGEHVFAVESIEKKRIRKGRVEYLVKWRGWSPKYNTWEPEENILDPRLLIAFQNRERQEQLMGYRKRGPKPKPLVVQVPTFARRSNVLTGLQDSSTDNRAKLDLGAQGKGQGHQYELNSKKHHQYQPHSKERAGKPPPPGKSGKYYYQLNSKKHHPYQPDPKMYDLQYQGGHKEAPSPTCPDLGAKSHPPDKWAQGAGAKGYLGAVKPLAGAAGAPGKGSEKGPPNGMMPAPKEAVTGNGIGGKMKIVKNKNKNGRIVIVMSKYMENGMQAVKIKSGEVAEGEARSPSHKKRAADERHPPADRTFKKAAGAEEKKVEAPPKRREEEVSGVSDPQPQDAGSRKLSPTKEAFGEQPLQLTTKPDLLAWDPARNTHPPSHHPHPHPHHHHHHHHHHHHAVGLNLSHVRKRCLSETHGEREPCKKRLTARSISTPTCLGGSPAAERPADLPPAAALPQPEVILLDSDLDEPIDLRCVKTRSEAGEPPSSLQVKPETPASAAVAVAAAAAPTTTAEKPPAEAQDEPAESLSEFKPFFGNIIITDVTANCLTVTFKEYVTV
UniProt P23443, sequence (whole entry, looked up): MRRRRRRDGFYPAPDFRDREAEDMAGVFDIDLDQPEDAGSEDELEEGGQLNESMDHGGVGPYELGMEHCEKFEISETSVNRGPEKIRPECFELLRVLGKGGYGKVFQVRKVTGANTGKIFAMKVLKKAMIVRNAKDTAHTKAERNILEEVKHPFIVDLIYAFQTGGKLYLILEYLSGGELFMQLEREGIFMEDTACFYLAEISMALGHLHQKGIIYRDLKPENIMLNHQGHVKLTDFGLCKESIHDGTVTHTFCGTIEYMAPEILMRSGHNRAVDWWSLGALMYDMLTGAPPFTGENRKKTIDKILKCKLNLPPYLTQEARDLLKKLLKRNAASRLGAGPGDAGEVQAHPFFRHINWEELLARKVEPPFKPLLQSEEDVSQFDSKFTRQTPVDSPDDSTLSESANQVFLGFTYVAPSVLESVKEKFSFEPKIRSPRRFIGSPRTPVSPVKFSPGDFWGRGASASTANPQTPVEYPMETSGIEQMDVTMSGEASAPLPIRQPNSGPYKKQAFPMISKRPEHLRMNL
UniProt P48729, sequence (whole entry, looked up): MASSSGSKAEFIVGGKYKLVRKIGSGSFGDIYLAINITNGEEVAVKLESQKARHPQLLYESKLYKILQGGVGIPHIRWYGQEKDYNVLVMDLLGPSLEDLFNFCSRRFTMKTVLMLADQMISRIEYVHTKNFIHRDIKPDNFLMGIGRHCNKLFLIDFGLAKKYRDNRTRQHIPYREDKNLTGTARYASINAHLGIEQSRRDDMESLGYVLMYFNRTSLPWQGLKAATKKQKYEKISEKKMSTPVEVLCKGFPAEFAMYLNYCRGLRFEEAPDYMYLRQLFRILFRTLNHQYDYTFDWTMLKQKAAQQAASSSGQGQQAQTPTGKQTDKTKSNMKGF
UniProt P61073, sequence (whole entry, looked up): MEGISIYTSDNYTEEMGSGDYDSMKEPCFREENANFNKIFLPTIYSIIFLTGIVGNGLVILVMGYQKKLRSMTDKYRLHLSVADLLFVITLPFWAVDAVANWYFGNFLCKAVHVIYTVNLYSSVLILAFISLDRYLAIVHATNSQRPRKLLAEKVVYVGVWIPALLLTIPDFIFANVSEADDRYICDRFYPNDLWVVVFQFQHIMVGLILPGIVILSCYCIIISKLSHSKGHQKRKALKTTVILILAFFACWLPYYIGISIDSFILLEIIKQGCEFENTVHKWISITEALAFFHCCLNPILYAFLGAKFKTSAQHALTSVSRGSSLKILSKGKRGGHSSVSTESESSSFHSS
UniProt P35372, sequence (whole entry, looked up): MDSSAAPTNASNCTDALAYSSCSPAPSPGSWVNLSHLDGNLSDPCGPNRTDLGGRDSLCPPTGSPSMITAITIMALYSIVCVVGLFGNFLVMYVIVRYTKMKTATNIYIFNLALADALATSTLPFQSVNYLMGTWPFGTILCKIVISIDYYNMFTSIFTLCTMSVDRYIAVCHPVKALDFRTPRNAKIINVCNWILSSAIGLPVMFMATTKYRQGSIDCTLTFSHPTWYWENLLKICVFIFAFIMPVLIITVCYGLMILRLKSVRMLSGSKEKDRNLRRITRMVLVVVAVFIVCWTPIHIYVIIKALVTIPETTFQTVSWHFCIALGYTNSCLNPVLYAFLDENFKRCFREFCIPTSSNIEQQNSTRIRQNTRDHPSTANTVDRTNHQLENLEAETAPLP
UniProt Q02750, sequence (whole entry, looked up): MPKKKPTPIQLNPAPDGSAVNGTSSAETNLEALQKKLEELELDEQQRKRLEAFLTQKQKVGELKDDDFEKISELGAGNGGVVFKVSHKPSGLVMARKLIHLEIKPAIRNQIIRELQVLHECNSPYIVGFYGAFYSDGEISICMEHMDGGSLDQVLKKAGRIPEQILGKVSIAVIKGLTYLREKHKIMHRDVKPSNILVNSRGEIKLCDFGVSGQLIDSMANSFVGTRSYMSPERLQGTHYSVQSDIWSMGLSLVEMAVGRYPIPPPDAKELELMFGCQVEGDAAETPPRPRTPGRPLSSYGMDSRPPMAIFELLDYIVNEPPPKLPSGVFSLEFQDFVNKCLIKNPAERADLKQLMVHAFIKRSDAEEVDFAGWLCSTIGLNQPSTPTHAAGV
UniProt Q9Y253, sequence (whole entry, looked up): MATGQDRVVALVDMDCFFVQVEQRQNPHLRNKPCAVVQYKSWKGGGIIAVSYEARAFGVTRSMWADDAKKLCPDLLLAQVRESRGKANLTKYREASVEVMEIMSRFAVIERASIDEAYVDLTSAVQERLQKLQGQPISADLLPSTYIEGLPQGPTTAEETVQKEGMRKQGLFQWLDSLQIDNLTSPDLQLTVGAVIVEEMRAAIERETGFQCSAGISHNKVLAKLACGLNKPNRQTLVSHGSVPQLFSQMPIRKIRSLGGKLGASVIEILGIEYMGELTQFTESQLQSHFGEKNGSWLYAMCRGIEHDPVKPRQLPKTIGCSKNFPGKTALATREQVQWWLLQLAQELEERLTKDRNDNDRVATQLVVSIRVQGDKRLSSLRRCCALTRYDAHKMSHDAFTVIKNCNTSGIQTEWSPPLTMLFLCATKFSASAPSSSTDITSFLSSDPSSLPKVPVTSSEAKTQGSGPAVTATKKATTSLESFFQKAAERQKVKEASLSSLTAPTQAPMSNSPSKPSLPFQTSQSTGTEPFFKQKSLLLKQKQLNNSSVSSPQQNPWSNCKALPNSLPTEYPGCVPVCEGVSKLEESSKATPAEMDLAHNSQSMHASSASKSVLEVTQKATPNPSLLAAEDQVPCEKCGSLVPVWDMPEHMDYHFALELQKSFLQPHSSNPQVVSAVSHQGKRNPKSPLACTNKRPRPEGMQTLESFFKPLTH
UniProt P26718, sequence (whole entry, looked up): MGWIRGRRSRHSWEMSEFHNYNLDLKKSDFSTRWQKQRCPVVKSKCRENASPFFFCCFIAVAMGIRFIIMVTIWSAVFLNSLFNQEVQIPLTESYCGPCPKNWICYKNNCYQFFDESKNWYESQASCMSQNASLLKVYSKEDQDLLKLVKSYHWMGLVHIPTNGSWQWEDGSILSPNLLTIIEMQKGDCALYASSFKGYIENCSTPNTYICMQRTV
UniProt P56494, sequence (whole entry, looked up): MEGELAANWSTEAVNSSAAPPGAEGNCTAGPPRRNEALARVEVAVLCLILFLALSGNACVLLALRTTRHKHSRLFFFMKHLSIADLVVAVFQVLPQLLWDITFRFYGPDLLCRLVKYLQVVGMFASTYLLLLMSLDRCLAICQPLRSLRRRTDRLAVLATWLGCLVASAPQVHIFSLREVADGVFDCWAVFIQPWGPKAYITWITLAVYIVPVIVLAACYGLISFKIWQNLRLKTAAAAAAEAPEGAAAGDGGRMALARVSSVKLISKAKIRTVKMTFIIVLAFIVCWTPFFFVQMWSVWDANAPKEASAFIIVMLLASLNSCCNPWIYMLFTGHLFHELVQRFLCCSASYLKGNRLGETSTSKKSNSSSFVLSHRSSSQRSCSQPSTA
UniProt Q6TCG2, sequence (whole entry, looked up): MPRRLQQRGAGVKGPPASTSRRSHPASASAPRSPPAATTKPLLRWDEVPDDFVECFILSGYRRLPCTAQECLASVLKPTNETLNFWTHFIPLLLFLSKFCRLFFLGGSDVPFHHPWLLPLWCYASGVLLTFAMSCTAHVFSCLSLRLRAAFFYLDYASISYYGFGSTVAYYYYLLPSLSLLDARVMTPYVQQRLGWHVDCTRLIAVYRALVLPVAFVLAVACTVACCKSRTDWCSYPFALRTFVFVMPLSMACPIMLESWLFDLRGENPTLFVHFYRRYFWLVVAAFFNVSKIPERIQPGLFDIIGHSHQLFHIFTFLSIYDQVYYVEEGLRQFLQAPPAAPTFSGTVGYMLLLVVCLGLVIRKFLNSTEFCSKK

| SMILES | target | test | test system | conditions | how to read | quantity | result |
| --- | --- | --- | --- | --- | --- | --- | --- |
| C[C@]1(COC(=O)Cc2ccc(O)c(O)c2)[C@H](C(=O)O)N2C(=O)/C(=C/c3ccccn3)[C@H]2S1(=O)=O | Beta-lactamase (ampC, Pseudomonas aeruginosa, UniProt P24735) | enzyme activity, inhibitor, absorbance |  |  |  | kinact | 0.046 s⁻¹ |
| CC[C@H](C)[C@H](NC(=O)[C@H](Cc1c[nH]cn1)NC(=O)[C@H](CCCCNC(=O)[C@@H](NC(=O)[C@H](CCCCN)NC(=O)[C@H](Cc1ccccc1)NC(=O)[C@H](CCCCNC(=O)[C@H](CC(C)C)NC(=O)[C@@H]1CCCN1C(=O)[C@H](CCCCN)NC(=O)c1ccc(O[C@@H]2O[C@H](CO)[C@H](O)[C@H](O)[C@H]2O)cc1)NC(=O)[C@H](CC(C)C)NC(=O)[C@@H]1CCCN1C(=O)[C@H](CCCCN)NC(=O)c1ccc(O[C@@H]2O[C@H](CO)[C@H](O)[C@H](O)[C@H]2O)cc1)[C@@H](C)CC)NC(=O)[C@@H](NC(=O)[C@H](CCCCN)NC(=O)[C@H](Cc1ccccc1)NC(=O)[C@H](CCCCNC(=O)[C@H](CC(C)C)NC(=O)[C@@H]1CCCN1C(=O)[C@H](CCCCN)NC(=O)c1ccc(O[C@@H]2O[C@H](CO)[C@H](O)[C@H](O)[C@H]2O)cc1)NC(=O)[C@H](CC(C)C)NC(=O)[C@@H]1CCCN1C(=O)[C@H](CCCCN)NC(=O)c1ccc(O[C@@H]2O[C@H](CO)[C@H](O)[C@H](O)[C@H]2O)cc1)[C@@H](C)CC)C(N)=O | lecA | hemagglutination, inhibitor | rabbit erythrocytes | 30 min, 4 °C |  | MIC | 0.78 µM (≈ 3.05 µg/mL) |
| Nc1ncnc2c1ncn2C1CC(O)C(COP(=O)(O)OP(=O)(O)C(Cl)P(=O)(O)O)O1 (mixture of isomers) | DNA polymerase eta (POLH, Homo sapiens, UniProt Q9Y253) | dNTP incorporation, single-turnover kinetics |  | W sequence, A·T pair | reference: non-enzymatic LFER line | delta effective pKa4 | 0.2 pK units |
| CN1C(CCc2ccccc2)CCC1CCc1ccccc1 (stereo not drawn) | Slc18a2 (Rattus norvegicus, UniProt Q01827) | dopamine uptake | rat striatal synaptic vesicles | added: [3H]dopamine |  | maximal inhibition | 100% |
| Cc1cc(Oc2nc(N3CC[C@@H](c4ccncc4)C3)ncc2F)[nH]n1 | PPAT (Homo sapiens, UniProt Q06203) |  |  |  | reference: human PPAT over M. tuberculosis PurF | selectivity ratio | > 10000 |
| CC(=O)NC(Cc1ccc(Br)c(Cl)c1)C(=O)N[C@@H](C)C(=O)N1CCC[C@H]1C(=O)N1CCC[C@H]1C(=O)N[C@@H](CCC(=O)O)C(=O)N[C@@H](Cc1c[nH]cn1)C(=O)N[C@@H](CO)C(=O)N[C@H](C(=O)N[C@@H](C)C(N)=O)[C@@H](C)OP(=O)(O)O (stereo partly drawn) | MAP2K1 (Homo sapiens, UniProt Q02750) |  |  | 10 µM |  | inhibition | 4.15 ± 0.13% |
| CCCCCc1cn(-c2ccc(C(=O)N[C@H]3CCOC3=O)cc2)nn1 | lasR | reporter gene, agonist | Escherichia coli DH5α pJN105L/pSC11 | 10 µM | reference: OdDHL 100 µM | activation | 0% |
| O=C1NC(=O)c2c1c1cc(F)c[n+]3c1c1c2c2cc(O)ccc2[n]1[Ru-4]312([N]=C=S)[S+]3CC[S+]1CC[S+]2CC3 (stereo not drawn) | RPS6KB1 (Homo sapiens, UniProt P23443) | kinase activity, inhibitor |  | 100 nM, added: 10 µM ATP |  | remaining activity | 7% |
| CCCCC/C=C\C/C=C\C/C=C\C/C=C\CCCC(=O)NC(CO)C(=O)O (stereo in doubt) | Voltage-gated potassium channel, KQT; KCNQ2(Kv7.2)/KCNQ3(Kv7.3) (KCNQ3/KCNQ2, Homo sapiens, UniProt O43525+O43526) | two-electrode voltage clamp | Xenopus oocytes | 10 µM |  | washout time | ~10 min |
| COc1ccc(-c2coc3cc(OCCN4CCCC[C@@H]4C)ccc3c2=O)cc1 | Ache (Rattus norvegicus, UniProt P37136) | inhibitor, Ellman method | rat |  |  | binding free energy | -6.4 kcal/mol |
| C[C@@]1(O)CC[C@H]2[C@H](CC[C@@H]3[C@@H]2CC[C@]2(C)[C@@H](C(=O)Cn4cccn4)CC[C@@H]32)C1 | Membrane progesterone receptor epsilon (Paqr9, Mus musculus, UniProt Q6TCG2) | pPKA/PKA immunoblot | MDA-MB-231 expressing Paqr9-GFP | 300 nM, 20 min | reference: control | PKA activation | 97.5 ± 11.2% |
| O=C(N[C@H]1CCOC1=O)c1ccc(-n2cc(C3CC3)nn2)cc1 | lasR | reporter gene, agonist | Escherichia coli, DH5α pJN105L/pSC11 | 100 µM | reference: OdDHL at same concentration | activation | 0% |
| CN(C)C(=O)C(NC(=O)c1ccccc1-c1ccc(C(F)(F)F)cc1)c1cccc(C(F)(F)F)c1 (stereo not drawn) | NKG2-D type II integral membrane protein, with MICA (KLRK1, Homo sapiens, UniProt P26718) | cellular TR-FRET binding |  | pIC50 minus ChromLogD |  | LLE | 2.2 ± 0.7 , 1.7 |
| Cn1cc(-c2cccc(CN3CCC4(CC3)COc3c4ccc4c3CN([C@H]3CCC(=O)NC3=O)C4=O)c2)cn1 | CSNK1A1 (Homo sapiens, UniProt P48729) | degrader, HiBiT | HEK293 | 6 h |  | Dmax | < 20% |
| O=P(O)(O)Oc1ccccc1 | Alkaline phosphatase PafA (pafA, Elizabethkingia meningoseptica, UniProt Q9KJX5, T79S) |  | Chryseobacterium meningosepticum | pH 8.0 | reference: wild type over mutant kcat/KM | relative catalytic efficiency | 5.9 |
| C[C@H](NC(=O)[C@H](Cc1ccccc1)NC(=O)c1ccc(Br)cc1)C(=O)N[C@H](C(=O)N[C@@H](CCCC[N+](C)(C)C)C(=O)N[C@@H](CO)C(N)=O)C1CCCC1 | E3 SUMO-protein ligase CBX4 (Homo sapiens, UniProt O00257) | competitive fluorescence polarization |  |  | reference: Cbx7 over E3 SUMO-protein ligase CBX4 | selectivity ratio | 3.9 fold |
| COc1cc2c(cc1O)oc(=O)c1c3cc(O)c(O)cc3oc21 | Genome polyprotein, NS5B polymerase (Hepatitis C virus genotype 1b, UniProt P26663) | RNA polymerase activity, uncompetitive inhibitor |  | added: poly rA/U12 varied, UTP 25 µM |  | Ki | 37.5 µM |
| CC[C@H](C)[C@@H]1NC(=O)[C@H](Cc2ccc(O)cc2)NC(=O)[C@@H](N)CSSC[C@@H](C(=O)N2CCC[C@H]2C(=O)N[C@@H](CC(C)C)C(=O)NCC(N)=O)NC(=O)[C@H](CC(N)=O)NC(=O)[C@H](CCC(N)=O)NC1=O | Oxytocin receptor (Macaca mulatta, UniProt P56494) | Ca2+ mobilisation, agonist | CHO cells |  |  | Emax | 4090 RFU |
| CN(C)CC#Cc1cccc(C(F)(F)F)c1 | Amyloid-beta precursor protein, amyloid-beta 1-40 oligomers (APP, Homo sapiens, UniProt P05067) | binding, STD NMR |  | highest STD |  | STD NMR signal | 6.02% |
| CC[C@H](C)[C@H](NC(=O)[C@H](Cc1c[nH]cn1)NC(=O)[C@H](CCCCNC(=O)[C@@H](NC(=O)[C@H](CCCCN)NC(=O)CSC[C@H](NC(=O)[C@H](Cc1ccccc1)NC(=O)[C@H](CCCCNC(=O)[C@H](CC(C)C)NC(=O)[C@@H]1CCCN1C(=O)[C@H](CCCCN)NC(=O)c1ccc(O[C@@H]2O[C@H](CO)[C@H](O)[C@H](O)[C@H]2O)cc1)NC(=O)[C@H](CC(C)C)NC(=O)[C@@H]1CCCN1C(=O)[C@H](CCCCN)NC(=O)c1ccc(O[C@@H]2O[C@H](CO)[C@H](O)[C@H](O)[C@H]2O)cc1)C(N)=O)[C@@H](C)CC)NC(=O)[C@@H](NC(=O)[C@H](CCCCN)NC(=O)CSC[C@H](NC(=O)[C@H](Cc1ccccc1)NC(=O)[C@H](CCCCNC(=O)[C@H](CC(C)C)NC(=O)[C@@H]1CCCN1C(=O)[C@H](CCCCN)NC(=O)c1ccc(O[C@@H]2O[C@H](CO)[C@H](O)[C@H](O)[C@H]2O)cc1)NC(=O)[C@H](CC(C)C)NC(=O)[C@@H]1CCCN1C(=O)[C@H](CCCCN)NC(=O)c1ccc(O[C@@H]2O[C@H](CO)[C@H](O)[C@H](O)[C@H]2O)cc1)C(N)=O)[C@@H](C)CC)C(N)=O | lecA | binding, isothermal titration calorimetry |  | divided by galactoside copies | reference: monovalent galactoside KD over ligand KD | relative potency per galactoside | 32 |
| CC(C)P(=S)(NP(=[Se])(C(C)C)C(C)C)C(C)C | Alpha-amylase (Bacillus subtilis, UniProt P00691) | fluorescence quenching |  | concentration not given, 304 K |  | number of binding sites | 0.8 ± 0.04 |
| CC(C)C[C@@H](N)C(=O)NCC(=O)N[C@H](C)C(=O)N[C@H](CO)C(=O)N[C@H](Cc1c[nH]c2ccccc12)C(=O)N[C@H](Cc1c[nH]cn1)C(=O)N[C@H](CCCNC(=N)N)C(=O)N1CCC[C@@H]1C(=O)N[C@H](CC(=O)O)C(=O)N[C@H](CCCCN)C(=O)N[C@H](CS)C(=O)N[C@H](CS)C(=O)N[C@H](CC(C)C)C(=O)NCC(=O)N[C@H](Cc1ccc(O)cc1)C(=O)N[C@H](CCC(N)=O)C(=O)N[C@H](CCCCN)C(=O)N[C@H](CCCNC(=N)N)C(=O)N1CCC[C@@H]1C(=O)N[C@H](CC(C)C)C(=O)N1CCC[C@@H]1C(=O)NCCCCCC(=O)N[C@@H](CCCCNC(=S)Nc1ccc2c(c1)C(=O)OC21c2ccc(O)cc2Oc2cc(O)ccc21)C(N)=O | CXCR4 (Homo sapiens, UniProt P61073) | binding | CHO cells expressing CXCR4 |  |  | saturating concentration | 800 nM |
| O=[N+]([O-])c1ccc(OP(=O)(O)O)cc1 | Alkaline phosphatase PafA (pafA, Elizabethkingia meningoseptica, UniProt Q9KJX5, N100A) |  | Chryseobacterium meningosepticum | pH 8.0 | reference: wild type over mutant kcat/KM | relative catalytic efficiency | 2.1 |
| CN(C)[C@H](CNC(=O)/C=C/c1cccc2ccccc12)Cc1ccc(O)cc1 | Mu-type opioid receptor, with Gi/o/z proteins (OPRM1, Homo sapiens, UniProt P35372) | receptor activation, agonist |  |  |  | Emax | 67 to 89% |

Some of these lines once more:
| SMILES | target | test | test system | conditions | how to read | quantity | result |
| --- | --- | --- | --- | --- | --- | --- | --- |
| CCCCCc1cn(-c2ccc(C(=O)N[C@H]3CCOC3=O)cc2)nn1 | lasR | reporter gene, agonist | Escherichia coli DH5α pJN105L/pSC11 | 10 µM | reference: OdDHL 100 µM | activation | 0% |
| O=C1NC(=O)c2c1c1cc(F)c[n+]3c1c1c2c2cc(O)ccc2[n]1[Ru-4]312([N]=C=S)[S+]3CC[S+]1CC[S+]2CC3 (stereo not drawn) | RPS6KB1 (Homo sapiens, UniProt P23443) | kinase activity, inhibitor |  | 100 nM, added: 10 µM ATP |  | remaining activity | 7% |
| CCCCC/C=C\C/C=C\C/C=C\C/C=C\CCCC(=O)NC(CO)C(=O)O (stereo in doubt) | Voltage-gated potassium channel, KQT; KCNQ2(Kv7.2)/KCNQ3(Kv7.3) (KCNQ3/KCNQ2, Homo sapiens, UniProt O43525+O43526) | two-electrode voltage clamp | Xenopus oocytes | 10 µM |  | washout time | ~10 min |
